Published values of several laboratories.
Every numbered part comes from another study and shows a few of its results, in no order.

Block 1
Target: Sal-like protein 4, full length isoform B (SALL4, Homo sapiens, UniProt Q9UJQ4-2, residues 1-616)
Method: universal PBM
Form: double-stranded DNA, one strand shown
Matrix: in vitro
Tested at: not given
Notes: 8-mer, flanks averaged, mean of replicates
Reading: higher = stronger binding
Quantity: E-score
ATCGATCC: -0.0993
CGAGTGCA: -0.0259
CGACAAGC: -0.223
CCTGCGAA: -0.0572
ACCCTCAT: -0.0571
GGTTTGGA: -0.0857
CCTGGTCG: -0.307

Block 2
Target: Prothrombin, mature alpha-thrombin (F2, Homo sapiens, UniProt P00734)
Method: aptamer microarray, sandwich
Form: DNA with 2'F-ANA
Matrix: in vitro
Tested at: 200 nM
Notes: whole 15-mer aptamer, many near background
Added: Cy3 exosite-II aptamer, 400 nM
Reading: higher = stronger binding
Quantity: mean fluorescence intensity
Oligonucleotide: GGTTGGTGTGGTTGG
2'F-ANA at 5 7 11 12 13: 110 a.u.
2'F-ANA at 4 8 9 11 12 15: 446 a.u.
2'F-ANA at 1 6 8 11 13: 162 a.u.
2'F-ANA at 4 5 6 7 8 10 12 14: 47.3 a.u.
2'F-ANA at 2 3 7 10 12 14 15: 331 a.u.

Block 3
Target: Interferon regulatory factor 5, full length, phosphomimetic (IRF5, Homo sapiens, UniProt Q13568-2, residues 1-514, S451D/S453D/S456D/S462D)
Method: protein-binding microarray
Form: double-stranded DNA, one strand shown
Matrix: in vitro
Tested at: 940 nM top
Notes: 60-bp whole probe
Added: salmon DNA 0.4 mg/ml
Relative to: random background probes
Reading: higher = stronger binding
Quantity: fitted relative affinity
Constant ends, left off below: GCCTAGCAC … GTCTTGATTCGCTTGACGCTGCTG
GACTGTTTGGTCCTGATCCTGTGCTAG: -0.0518 z-score
TCATCTTGCAGATGTCGCACTGTGCTA: 0.0815 z-score
GACGGTTTCGGGTTTCGAGACGTGCTA: 9.01 z-score
GACGATTTCAGAATGGAGACGTGCTAG: -0.292 z-score
GACGGTATCCTTTTACTGACGTGCTAG: 0.475 z-score
TTAGATCTCAGTATCCATTAGTGCTAG: 0.569 z-score
GGTCTTTTCGCTTTCTTTACGTGCTAG: 3 z-score

Mixed results
PhoQ, residues 284 288 289 292 302 303 AQGLTV — fold induction (PhoP, residues 12 14 15 18 19 HLGGL (Escherichia coli, UniProt P23836); Sort-seq, item: YFP reporter; E. coli; PhoQ-PhoP variant library, added: 10 µM Mg2+; relative to: high Mg2+ state, higher = stronger signaling): 0.969
